Experimental data gathered from unrelated publications.
Lines come from different studies, so protocols differ. Numbers after ± are the reported error. Converted amounts (≈) assume the structure as drawn.

`CN(C)c1nc(NCc2c(F)cccc2C(F)(F)F)c(/N=N/c2ccc(Cl)cc2)c(N(C)C)n1` has a mortality of 85 ± 7.1% (Ostrinia furnacalis; leaf dipping; 200 mg/L, 96 h).
The MBC of `CCCC(=O)OCCSC[C@H](N)C(=O)N[C@H](CCN)C(=O)N[C@@H](CCN)C(=O)N[C@@H](CCN)C(=O)N[C@@H](CC(C)C)C(=O)N[C@H](Cc1ccccc1)C(=O)N[C@@H](CCN)C(=O)N[C@@H](CCN)C(=O)N[C@@H](CC(C)C)C(N)=O` is reported as > 128 µM (Acinetobacter calcoaceticus; BHI agar spot plating; 24 h, 37 °C).
With `CC(C)[C@H]1NC(=O)[C@H](Cc2ccccc2)NC(=O)[C@@H](C(C)C)NC(=O)[C@@H](C)NC(=O)[C@H](CO)NC(=O)[C@@H](Cc2c(-c3ccc4c5ccccc5c5ccccc5c4c3)[nH]c3ccccc23)NC(=O)[C@@H](CO)NC1=O` the MIC90 was > 100 µM (Mycobacterium marinum).
`FC(F)(F)c1cccc(CNc2nc(NC3CCN(Cc4ccccc4)CC3)c3nc[nH]c3n2)c1` — result for “mRNA fold change”: 1.01 (Cryptococcus neoformans; RNA-seq, refers to: CNAG_03821; 48 µg/mL, 3 h; baseline: untreated).
The inhibition of `C=CCN1C(=O)C(CC=C)(C(=O)OCC)Oc2cc(F)ccc21` (centres unmarked) is reported as > 50% (Rhizoctonia solani; microbial growth; 200 µg/mL).
`CC1(C)C(NC(=O)C(=NOC2(C(=O)O)CC2)c2csc(N)n2)C(=O)N1OS(=O)(=O)O` (centres unmarked) has a survival rate of 60% (Klebsiella pneumoniae; ATCC BAA-2146, NDM-1, ICR mice, systemic lethal infection; intravenous, 32 mg/kg, 7 days).
`CN(C)c1nc(NCc2ccc(F)c(C(F)(F)F)c2)c(/N=N/c2ccc(Cl)cc2)c(N(C)C)n1` has a mortality of 46.7 ± 5.8% (Ostrinia furnacalis; leaf dipping; 50 mg/L, 96 h).
The EC50 of `CC(=O)CCC1C(=O)NC(C(C)C)C(=O)NC(Cc2cc(O)cc(F)c2)C(=O)N2CCCC(N2)C(=O)OC(C(C)=CC=CC(=O)N2CCCCO2)CC=CC=CC(O)C(C)C1O` (centres unmarked) is reported as 14 ± 1 nM (Hepatitis C virus; viral replication; Huh7, Con1 replicon; 20% human serum).
`COc1ccc(Cn2c3cc(=O)n(Cc4cccc(Cl)n4)c(C)c3c(=O)n2-c2ccccn2)cc1` — result for “normalized viral replication”: 0 (human respiratory syncytial virus; recombinant reporter virus; concentration not given, scale 0 to 100, with: adenosine 1.2 µM).
`CC(C)[C@H]1NC(=O)[C@H](Cc2ccccc2)NC(=O)[C@@H](C(C)C)NC(=O)[C@@H](C)NC(=O)[C@H]([C@@H](C)O)NC(=O)[C@@H](Cc2c(-c3ccc(-c4ccc5ccccc5c4)cc3)[nH]c3ccccc23)NC(=O)[C@@H](CO)NC1=O` has an MIC90 of > 100 µM (Mycobacterium marinum).
With `CC(O)CN.O=C(O)C(Cl)Cl` the inhibition was 0% (Chenopodium album; herbicidal activity; 15 mg/mL, 21 days, pre-emergence greenhouse).
For `CC[C@H](C)CCCCC(=O)N[C@@H](CCN)C(=O)N[C@H](C(=O)N[C@@H](CCN)C(=O)N[C@H]1CCNC(=O)[C@H]([C@@H](C)O)NC(=O)[C@H](CCN)NC(=O)[C@H](CCN)NC(=O)[C@H](CC(C)C)NC(=O)[C@@H](CC(C)C)NC(=O)[C@H](CCN)NC1=O)[C@@H](C)O`, “MIC fold change” read 0.579 (Escherichia coli; daily serial passaging; ATCC 8739; highest sub-MIC, 13 days; baseline: initial MIC).
`O=S(=O)(c1ccc(-c2ccc3ncnc(Nc4ccc(OCc5cccc(Cl)c5)c(Cl)c4)c3c2)cc1)N1CCOCC1` has an inhibition of 4% (Trypanosoma cruzi; intracellular amastigote growth, β-galactosidase CPRG; 3T3, Tulahuen, β-galactosidase-expressing; 10 µM, 96 h).
`CC[C@H](C)[C@@H]1NC(=O)[C@H](CO)NC(=O)C(C)(CCCCN)NC(=O)[C@@H]2CSSC[C@@H](C(=O)N[C@@H](Cc3ccc(O)cc3)C(N)=O)NC(=O)[C@H](CCCCN)NC(=O)[C@@H]3CSSC[C@H](NC(=O)[C@H](CCCNC(=N)N)NC(=O)C(C)(CC(C)C)NC(=O)[C@H](CC(=O)O)NC(=O)[C@H](CC(=O)O)NC(=O)[C@H](CCC(=O)O)NC(=O)[C@H](CC(N)=O)NC(=O)[C@H](Cc4c[nH]c5ccccc45)NC(=O)C(C)(CC)NC(=O)CNC(=O)[C@H](CC(N)=O)NC(=O)[C@@H](NC(=O)CNC(=O)[C@H](Cc4ccccc4)NC(=O)CN)CSSC[C@H](NC(=O)[C@H](Cc4ccc(O)cc4)NC(=O)CNC(=O)CNC(=O)[C@H](CCCCN)NC(=O)[C@H](Cc4ccc(O)cc4)NC(=O)[C@H]4CCCN4C(=O)[C@@H]4CCCN4C1=O)C(=O)N[C@@H](C)C(=O)N[C@@H](CCCCN)C(=O)N1CCC[C@@H]1C(=O)NCC(=O)N[C@@H](Cc1ccccc1)C(=O)N[C@@H](C(C)C)C(=O)N3)C(=O)N[C@@H](Cc1c[nH]cn1)C(=O)NC(C)(C)C(=O)N[C@@H](Cc1c[nH]cn1)C(=O)N2` (some centres unmarked) has an MBC of 2 µM (≈ 8.92 µg/mL) (Streptococcus pneumoniae; 19F; 24 h).
For `CC1COC2=C1C(=O)C(=O)c1c2ccc2c1C(OC(=O)CNC(=O)CN)CCC2(C)C` (mixture of isomers), “inhibition zone diameter” read 14.5 ± 0.9 mm (Cutibacterium acnes; 10 µmol/mL, 48 h, anaerobic, 10 µL on 6 mm disc).
`Cc1cc(Cl)cc(S(C)(=O)=NC#N)c1NC(=O)c1cc(Br)nn1-c1ncccc1Cl` (centres unmarked) gave a mortality of 0% (Spodoptera litura; leaf-dip; third instar larvae; 50 ppm, 24 h).
Under “geometric mean MIC”, `CC(C)C[C@H](NC(=O)[C@@H](N)CO)C(=O)N[C@@H](Cc1c[nH]c2ccccc12)C(=O)N[C@@H](CCC(=O)O)C(=O)N[C@@H](CC(N)=O)C(=O)N[C@@H](Cc1ccccc1)C(=O)N[C@@H](CCCCN)C(=O)N[C@@H](CC(N)=O)C(=O)N[C@@H](C)C(=O)NCC(=O)N[C@@H](CCCCN)C(N)=O` is recorded as 256 µM (Gram-positive bacteria).
Under “cells in G1 phase”, `Cc1cc(C(=O)Nc2nc3cccc(C)c3n2[C@H]2CCCCN(C(=O)/C=C/CN(C)C)C2)ccn1` is recorded as 37.1% (Trypanosoma brucei; propidium iodide flow cytometry; bloodstream form; concentration not given, 72 h).
With `CC(C)[C@H]1NC(=O)[C@H](Cc2ccccc2)NC(=O)[C@@H](C(C)C)NC(=O)[C@@H](C)NC(=O)[C@H](CO)NC(=O)[C@@H](Cc2c(-c3ccc(-c4ccc(-c5ccccc5)cc4)cc3)[nH]c3ccccc23)NC(=O)[C@@H](C)NC1=O` the MIC90 was 40.4 µM (Mycobacterium marinum).
With `[O-][N+]1=C(c2ccccc2)C2=NCCN2c2ccccc21` the MIC90 was 0.5 µg/mL (Clostridioides difficile; microbial growth).

A few entries again:
`O=S(=O)(c1ccc(-c2ccc3ncnc(Nc4ccc(OCc5cccc(Cl)c5)c(Cl)c4)c3c2)cc1)N1CCOCC1` has an inhibition of 4% (Trypanosoma cruzi; intracellular amastigote growth, β-galactosidase CPRG; 3T3, Tulahuen, β-galactosidase-expressing; 10 µM, 96 h).
`CC1(C)C(NC(=O)C(=NOC2(C(=O)O)CC2)c2csc(N)n2)C(=O)N1OS(=O)(=O)O` (centres unmarked) has a survival rate of 60% (Klebsiella pneumoniae; ATCC BAA-2146, NDM-1, ICR mice, systemic lethal infection; intravenous, 32 mg/kg, 7 days).
